Measurements pooled from the literature.
Protocols differ between the studies behind these lines. “And” joins repeats or separate records; there may be more than shown. ± marks the error that the study gave.
T1: riboswitch RNA A38C/U39C; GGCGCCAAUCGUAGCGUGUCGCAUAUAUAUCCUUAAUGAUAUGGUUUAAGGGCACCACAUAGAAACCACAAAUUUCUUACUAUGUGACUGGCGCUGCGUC

| SMILES | target or system | assay | test system | setting | how to read | quantity | result |
| --- | --- | --- | --- | --- | --- | --- | --- |
| O=C(Nc1ccc(N2CCOCC2)cc1)c1cc(-c2ccccc2)n(-c2ccccc2)n1 | Genome polyprotein, NS2B-NS3 protease (dengue virus type 2, UniProt P29990) | reporter gene | HeLa | 12.5 µM |  | inhibition | 39% |
| CNc1ccc(-c2n[nH]c3c2CCN(C(=O)c2ccccc2)C3)cc1 | human kinase panel | binding, KINOMEscan |  | 10000 nM, %Ctrl below 10 |  | number of kinases hit | 2 |
| COc1ccc(C(OCCN2CCCC(C(=O)O)C2)(c2ccc(OC)cc2)c2ccc(OC)cc2)cc1 (stereo not shown) | Sodium- and chloride-dependent GABA transporter 1 (SLC6A1, Homo sapiens, UniProt P30531) | GABA transport, inhibitor, radioligand uptake | HEK293F transfected | 800 nM, 15 min pre, 45 min uptake, room temperature, with: [3H]-GABA 30 nM, GABA 25 µM | higher = more uptake | [3H]-GABA uptake | 1340 a.u. and 1320 a.u. and 943 a.u. and 4440 a.u. and 897 a.u. and 1020 a.u. and 4270 a.u. and 1050 a.u. |
| CN(C)c1ccc2c(c1)C(=O)N(Cc1ccc(S(N)(=O)=O)cc1)C2=O | Carbonic anhydrase 2 (CA2, Bos taurus, UniProt P00921) | binding |  |  |  | emission maximum | 543 nm |
| C=CC(=O)N1CCCC(n2c(=O)c3ncccc3n(Cc3ccc(Oc4ccccc4)cc3)c2=O)C1 (stereo not shown) | T-complex protein 1 subunit epsilon (CCT5, Homo sapiens, UniProt P48643) | thermal proteome profiling | cell proteome | treated |  | melting temperature | 52.1 °C and 47.5 °C |
| CC(C)[C@@H]1NC(=O)[C@H](Cc2ccccc2)NC(=O)CSC[C@@H](C(N)=O)NC(=O)[C@H](CCC(=O)O)NC(=O)[C@H](CO)NC(=O)[C@H](Cc2c[nH]c3cccc(Cl)c23)NC(=O)[C@H](C2CCCCC2)NC(=O)[C@H](C(C)C)NC(=O)[C@H](Cc2ccc(O)cc2)NC(=O)[C@H](CC(=O)O)NC(=O)[C@H](Cc2c[nH]c3ccccc23)NC(=O)[C@H](Cc2ccc(N)nc2)NC(=O)[C@H](Cc2c[nH]c3ccc(Cl)cc23)NC(=O)[C@H](CCC(=O)O)NC1=O | Interleukin-1 receptor-like 2 (IL1RL2, Homo sapiens, UniProt Q9HB29) | reporter gene (SEAP), inhibitor, HEK-Blue IL-36R reporter | HEK-Blue IL-36R cells | 1.23 µM, 6 h, with: IL-36β 0.03 ng/mL |  | remaining activity | 4.3% |
| O=C1CCC(N2Cc3c(OCc4ccc(CN5CCNCC5)cc4)cccc3C2=O)C(=O)N1 (stereo not shown) | Cereblon/Ikaros (Homo sapiens, UniProt Q13422+Q96SW2) | protein level, degrader, western blot | NCI-H929 | 10 nM, 4 h |  | remaining activity | 73.2% |
| COC(=O)Cc1cc2c(cc1C(=O)c1ccccc1Cl)OCO2 | Glutamate receptor 2 (Gria2, Rattus norvegicus, UniProt P19491) | glutamate-evoked current, whole-cell patch clamp | HEK-293T | concentration not given, weighted tau, 1 ms pulse, with: glutamate |  | deactivation time constant | 3.5 ± 0.2 ms |
| C#CC[C@H](NC(=O)c1ccc(C(=O)c2ccccc2)cc1)C(=O)NCCCCCC(=O)N[C@@H](CCCCNC(=O)CSCCNC(=O)CCNC(=O)[C@H](O)C(C)(C)COP(=O)(O)OP(=O)(O)OC[C@H]1O[C@@H](n2cnc3c(N)ncnc32)[C@H](O)[C@@H]1OP(=O)(O)O)C(N)=O | Endoplasmic reticulum chaperone BiP (HSPA5, Homo sapiens, UniProt P11021) | affinity enrichment LC-MS/MS | HEK293 cell extract, PCAF transfected |  | reference: 1 over empty vector | enrichment ratio | 1.4 |
| Nc1nc2nccnc2c(=O)[nH]1 | lumazine dehydrogenase, Cupriavidus sp. LA-1 |  |  | pH 7.5 |  | Km | 21.3 ± 4 µM |
| CCCCCCCCCCCCC/C=C/C=O | Cleavage stimulation factor subunit 2 (CSTF2, Homo sapiens, UniProt P33240) | competitive isoTOP-ABPP, item: CSTF2 cysteine peptide | Ramos soluble proteome | 100 µM, with: iodoacetamide probe | reference: DMSO over compound-treated, higher = stronger cysteine blockade | isoTOP-ABPP competition ratio | 1 |
| Nc1nc2c(ncn2[C@H]2C[C@H](O)[C@@H](CO)O2)c(=O)[nH]1 | T1, riboswitch RNA A38C/U39C | fluorescence |  | 5 µM |  | binding | binds |
| CC(=O)NCCCC[C@H](NC(C)=O)C(=O)N[C@@H](CCCC(=O)O)C(=O)N[C@@H](C)C(=O)N[C@@H](CC(=O)O)C(=O)COC(=O)c1c(C)cccc1C | Caspase-7 (CASP7, Homo sapiens, UniProt P55210) | enzyme activity, inhibitor |  |  |  | kinact/KI | 3000 M⁻¹ s⁻¹ |
| COC1CN([C@H]2CC[C@H]([C@@]3(C)Oc4c(Cl)cc(C(=O)NCc5c(SC)cc(C)[nH]c5=O)c(C)c4O3)CC2)C1 |  | RNA-seq, item: RUNDC3A | human, whole blood | dose not given, 24 h | reference: pretreatment baseline | log2 fold change | 5.76 |
| Cc1ncsc1-c1ccc(C(C)NC(=O)C2CC(O)CN2C(=O)C(NC(=O)CCCCCCCCCCN2CCCC(Nc3ncc(Cl)c(Nc4ccccc4S(=O)(=O)C(C)C)n3)C2)C(C)(C)C)cc1 (stereo not shown) | 22Rv1 | RNA-seq, item: PAFAH2 mRNA |  | concentration not given | reference: DMSO | log2 fold change | -1.32 |
| Cc1cc(-c2n[nH]cc2C(=O)Nc2ccc(C)c(F)c2)ccn1 | human kinase panel | binding, KINOMEscan |  | 10000 nM, %Ctrl below 35 |  | number of kinases hit | 2 |

For quick reference, copied from above:
| SMILES | target or system | assay | test system | setting | how to read | quantity | result |
| --- | --- | --- | --- | --- | --- | --- | --- |
| CNc1ccc(-c2n[nH]c3c2CCN(C(=O)c2ccccc2)C3)cc1 | human kinase panel | binding, KINOMEscan |  | 10000 nM, %Ctrl below 10 |  | number of kinases hit | 2 |
| C=CC(=O)N1CCCC(n2c(=O)c3ncccc3n(Cc3ccc(Oc4ccccc4)cc3)c2=O)C1 (stereo not shown) | T-complex protein 1 subunit epsilon (CCT5, Homo sapiens, UniProt P48643) | thermal proteome profiling | cell proteome | treated |  | melting temperature | 52.1 °C and 47.5 °C |
